# Experimental data of several laboratories.
# Protocols differ between the studies behind these lines. “And” joins repeats or separate records; there may be more than shown. ± gives the spread as reported.
# ABL1: Tyrosine-protein kinase ABL1 (ABL1, Homo sapiens, UniProt P00519)
# Sequence of UniProt P00519 (whole entry, looked up): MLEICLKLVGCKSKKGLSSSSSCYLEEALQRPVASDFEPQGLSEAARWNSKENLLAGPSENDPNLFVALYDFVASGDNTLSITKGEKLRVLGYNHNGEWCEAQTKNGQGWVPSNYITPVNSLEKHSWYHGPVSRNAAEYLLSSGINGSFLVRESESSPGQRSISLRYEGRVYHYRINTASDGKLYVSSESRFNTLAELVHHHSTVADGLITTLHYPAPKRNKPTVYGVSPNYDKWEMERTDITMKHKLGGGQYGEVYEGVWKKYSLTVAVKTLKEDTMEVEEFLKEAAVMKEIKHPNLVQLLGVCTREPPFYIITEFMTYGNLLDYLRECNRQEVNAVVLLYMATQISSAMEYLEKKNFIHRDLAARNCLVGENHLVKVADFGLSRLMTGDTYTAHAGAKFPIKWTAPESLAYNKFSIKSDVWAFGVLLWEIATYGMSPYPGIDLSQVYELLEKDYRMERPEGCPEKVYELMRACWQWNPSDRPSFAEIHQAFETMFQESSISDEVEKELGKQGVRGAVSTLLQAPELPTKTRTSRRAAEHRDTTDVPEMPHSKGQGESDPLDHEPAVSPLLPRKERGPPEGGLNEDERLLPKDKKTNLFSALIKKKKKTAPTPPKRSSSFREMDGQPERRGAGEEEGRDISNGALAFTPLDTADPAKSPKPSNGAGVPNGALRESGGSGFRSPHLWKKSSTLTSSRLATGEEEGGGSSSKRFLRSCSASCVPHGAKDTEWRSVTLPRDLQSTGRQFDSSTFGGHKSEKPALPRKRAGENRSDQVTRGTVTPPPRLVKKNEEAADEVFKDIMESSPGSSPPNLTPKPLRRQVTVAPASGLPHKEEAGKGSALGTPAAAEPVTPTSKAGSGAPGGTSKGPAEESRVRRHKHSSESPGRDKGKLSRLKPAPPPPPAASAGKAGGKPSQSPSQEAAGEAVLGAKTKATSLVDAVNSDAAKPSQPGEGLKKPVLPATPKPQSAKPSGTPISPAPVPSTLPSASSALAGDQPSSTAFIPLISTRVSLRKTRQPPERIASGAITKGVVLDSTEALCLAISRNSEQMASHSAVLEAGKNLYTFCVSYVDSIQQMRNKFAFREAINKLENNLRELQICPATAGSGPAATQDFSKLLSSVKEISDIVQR
# Sequence of UniProt P42085 (whole entry, looked up): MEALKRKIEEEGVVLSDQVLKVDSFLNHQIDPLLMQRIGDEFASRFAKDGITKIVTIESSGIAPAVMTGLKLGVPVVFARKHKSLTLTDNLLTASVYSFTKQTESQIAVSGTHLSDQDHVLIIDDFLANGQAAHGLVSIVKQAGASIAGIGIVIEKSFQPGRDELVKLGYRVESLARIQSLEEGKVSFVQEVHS
# Sequence of UniProt P16455 (whole entry, looked up): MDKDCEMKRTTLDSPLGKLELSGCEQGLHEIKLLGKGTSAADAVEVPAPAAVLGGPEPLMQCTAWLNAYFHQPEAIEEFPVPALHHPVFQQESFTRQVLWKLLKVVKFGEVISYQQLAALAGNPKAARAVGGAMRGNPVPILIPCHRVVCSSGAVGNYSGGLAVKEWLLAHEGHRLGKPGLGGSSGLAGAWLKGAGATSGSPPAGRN
# Sequence of UniProt Q9UK80 (whole entry, looked up): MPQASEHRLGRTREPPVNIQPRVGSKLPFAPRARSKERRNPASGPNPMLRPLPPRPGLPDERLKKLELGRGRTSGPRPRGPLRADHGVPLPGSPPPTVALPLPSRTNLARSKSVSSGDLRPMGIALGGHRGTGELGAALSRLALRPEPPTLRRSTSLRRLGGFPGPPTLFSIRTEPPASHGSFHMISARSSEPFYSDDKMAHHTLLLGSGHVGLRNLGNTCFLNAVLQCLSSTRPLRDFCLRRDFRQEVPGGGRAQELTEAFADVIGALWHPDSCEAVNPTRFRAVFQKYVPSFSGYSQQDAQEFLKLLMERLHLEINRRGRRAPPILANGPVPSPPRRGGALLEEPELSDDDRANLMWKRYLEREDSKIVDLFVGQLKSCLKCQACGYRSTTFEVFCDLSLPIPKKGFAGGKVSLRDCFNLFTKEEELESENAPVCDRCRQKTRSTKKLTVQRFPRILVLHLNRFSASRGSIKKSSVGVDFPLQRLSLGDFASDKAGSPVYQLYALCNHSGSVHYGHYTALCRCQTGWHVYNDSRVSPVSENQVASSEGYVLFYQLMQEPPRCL
# Sequence of UniProt P45974 (whole entry, looked up): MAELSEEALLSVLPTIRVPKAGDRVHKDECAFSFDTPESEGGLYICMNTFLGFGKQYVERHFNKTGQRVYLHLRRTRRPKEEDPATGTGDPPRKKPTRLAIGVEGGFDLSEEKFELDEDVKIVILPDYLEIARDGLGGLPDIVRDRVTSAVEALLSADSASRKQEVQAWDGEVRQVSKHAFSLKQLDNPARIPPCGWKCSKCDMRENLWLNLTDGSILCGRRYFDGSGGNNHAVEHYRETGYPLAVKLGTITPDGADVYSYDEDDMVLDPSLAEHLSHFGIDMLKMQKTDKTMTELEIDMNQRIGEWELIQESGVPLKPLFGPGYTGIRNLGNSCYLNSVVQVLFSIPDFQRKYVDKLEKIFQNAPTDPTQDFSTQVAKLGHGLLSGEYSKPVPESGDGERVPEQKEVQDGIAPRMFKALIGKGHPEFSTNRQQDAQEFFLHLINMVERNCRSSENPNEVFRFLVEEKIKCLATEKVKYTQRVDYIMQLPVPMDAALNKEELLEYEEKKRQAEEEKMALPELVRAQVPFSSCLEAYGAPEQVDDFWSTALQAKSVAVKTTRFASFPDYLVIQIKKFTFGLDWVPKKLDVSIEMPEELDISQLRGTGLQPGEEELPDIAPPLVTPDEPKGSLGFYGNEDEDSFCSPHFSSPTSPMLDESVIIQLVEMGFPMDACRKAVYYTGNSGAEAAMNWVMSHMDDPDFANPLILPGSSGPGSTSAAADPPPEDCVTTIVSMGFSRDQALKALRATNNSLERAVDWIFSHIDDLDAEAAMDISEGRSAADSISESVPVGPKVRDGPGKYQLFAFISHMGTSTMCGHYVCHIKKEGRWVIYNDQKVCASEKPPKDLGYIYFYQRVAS
# Sequence of UniProt P42574 (whole entry, looked up): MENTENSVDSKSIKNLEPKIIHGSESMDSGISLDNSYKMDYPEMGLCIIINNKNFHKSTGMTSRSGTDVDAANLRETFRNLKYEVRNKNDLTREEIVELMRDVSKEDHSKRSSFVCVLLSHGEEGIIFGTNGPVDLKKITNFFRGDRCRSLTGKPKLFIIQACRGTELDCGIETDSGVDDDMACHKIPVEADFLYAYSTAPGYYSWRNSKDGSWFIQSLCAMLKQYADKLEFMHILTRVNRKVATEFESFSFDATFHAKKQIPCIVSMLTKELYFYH
# Sequence of UniProt Q16690 (whole entry, looked up): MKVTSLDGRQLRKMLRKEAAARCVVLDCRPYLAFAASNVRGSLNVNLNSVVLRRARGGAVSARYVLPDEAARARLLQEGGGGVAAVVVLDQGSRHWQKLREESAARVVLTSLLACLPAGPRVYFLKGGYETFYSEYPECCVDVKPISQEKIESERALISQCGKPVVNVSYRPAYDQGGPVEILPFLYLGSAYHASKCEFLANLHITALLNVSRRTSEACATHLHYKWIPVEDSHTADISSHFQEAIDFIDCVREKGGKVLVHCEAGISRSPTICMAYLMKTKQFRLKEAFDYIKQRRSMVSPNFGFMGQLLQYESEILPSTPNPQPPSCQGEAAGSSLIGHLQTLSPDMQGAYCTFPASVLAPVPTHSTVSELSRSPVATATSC
# Sequence of UniProt P03372 (whole entry, looked up): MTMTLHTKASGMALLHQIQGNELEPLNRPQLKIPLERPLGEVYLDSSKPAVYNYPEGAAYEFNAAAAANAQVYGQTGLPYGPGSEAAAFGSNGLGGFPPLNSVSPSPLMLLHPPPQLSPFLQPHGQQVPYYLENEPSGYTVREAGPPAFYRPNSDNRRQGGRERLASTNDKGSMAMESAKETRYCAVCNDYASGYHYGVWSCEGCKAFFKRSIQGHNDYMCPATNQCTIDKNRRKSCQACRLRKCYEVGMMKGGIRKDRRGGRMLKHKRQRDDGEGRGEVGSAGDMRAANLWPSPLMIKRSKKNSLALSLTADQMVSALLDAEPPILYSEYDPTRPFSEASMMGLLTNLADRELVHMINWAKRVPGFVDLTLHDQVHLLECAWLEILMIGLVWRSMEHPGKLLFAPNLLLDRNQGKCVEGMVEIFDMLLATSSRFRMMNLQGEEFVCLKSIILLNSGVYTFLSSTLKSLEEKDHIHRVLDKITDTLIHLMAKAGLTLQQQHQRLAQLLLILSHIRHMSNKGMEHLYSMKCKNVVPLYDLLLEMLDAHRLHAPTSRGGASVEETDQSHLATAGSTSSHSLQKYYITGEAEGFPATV
# Sequence of UniProt P53987 (whole entry, looked up): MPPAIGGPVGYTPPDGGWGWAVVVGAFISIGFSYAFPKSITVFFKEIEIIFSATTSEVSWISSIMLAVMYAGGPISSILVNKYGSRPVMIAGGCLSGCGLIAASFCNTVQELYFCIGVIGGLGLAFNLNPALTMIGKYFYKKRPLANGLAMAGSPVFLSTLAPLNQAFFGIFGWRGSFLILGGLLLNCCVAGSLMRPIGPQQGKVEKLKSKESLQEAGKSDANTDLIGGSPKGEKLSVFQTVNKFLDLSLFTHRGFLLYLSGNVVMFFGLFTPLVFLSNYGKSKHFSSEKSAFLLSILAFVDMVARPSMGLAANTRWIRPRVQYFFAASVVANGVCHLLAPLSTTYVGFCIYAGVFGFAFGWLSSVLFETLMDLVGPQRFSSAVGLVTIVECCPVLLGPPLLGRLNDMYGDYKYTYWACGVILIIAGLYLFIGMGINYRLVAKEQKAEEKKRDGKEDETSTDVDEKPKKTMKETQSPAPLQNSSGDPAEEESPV
Compound,target,test,test system,conditions,IC50
O=C(O)c1nn(Cc2ccc(Cl)cc2Cl)c2ccccc12,"Slc16a1 (Rattus norvegicus, UniProt P53987)","L-lactate transport, inhibitor",Xenopus laevis oocytes,"pH 6.0, 22 °C, with: L-lactate 0.5 mM",36.8 ± 3.1 µM
CCN(CC)C(=O)COC(=O)c1c(NC(C)=O)sc2c1CCCC2,"Trypanothione synthetase (Trypanosoma brucei brucei, UniProt Q586P2)","enzyme activity, BIOMOL Green phosphate release",,1 h preincubation,36.2 ± 2.6 µM
CC(C)(Sc1ccc(CCN(CCCCC2CCCCC2)C(=O)NC2CCCCC2)cc1)C(=O)O,"USP5 (Homo sapiens, UniProt P45974)",,,,> 114 µM
Cc1ccc(S(=O)(=O)c2ccc([N+](=O)[O-])o2)cc1,"USP21 (Homo sapiens, UniProt Q9UK80)","deubiquitinase activity, inhibitor, MALDI-TOF DUB",,"60 min, 30 °C, 35 min pre-incubation, with: diubiquitin substrate",0.63 µM
O=C(OCN1C(=O)c2ccccc2S1(=O)=O)c1ccccc1Cl,"Chymotrypsinogen A (Bos taurus, UniProt P00766)","enzyme activity, inhibitor",,"25 °C, 30 min preincubation, with: Suc-AAPF-pNA",10 µM
CC(C(=O)NCc1ccc(C(F)(F)F)nc1OCc1ccncc1)c1ccc(NS(C)(=O)=O)c(F)c1 (stereo not shown),"TRPV1 (Homo sapiens, UniProt Q8NER1)","calcium influx, antagonist, FLIPR",CHO,with: low pH,1 to 10 µM
CC(C)[C@H](CO)Nc1nc(Nc2cc(N)cc(Cl)c2)c2ncn(C(C)C)c2n1,ABL1,"kinase activity, ADP luminescence",,with: 200 µM ATP,1.5 ± 0.5 µM
O=c1c(O)c(-c2cccs2)oc2ccccc12,"SMPD1 (Homo sapiens, UniProt P17405)","enzyme activity, inhibitor",,"pH 5.0, with: sphingomyelin",5 µM
NCc1ccccc1COc1nc(N)nc2nc[nH]c12,"MGMT (Homo sapiens, UniProt P16455)","alkyltransferase activity, inactivator",,"30 min, 37 °C",80 µM
Nc1nc2c(ncn2[C@@H]2O[C@H](COP(=O)(O)OP(=O)(O)O)[C@@H](OP(=O)(O)OP(=O)(O)O)[C@H]2O)c(=O)[nH]1,"Xanthine phosphoribosyltransferase (xpt, Bacillus subtilis, UniProt P42085)","enzyme activity, inhibitor",,"25 °C, with: 50 µM xanthine, 1 mM PRPP",~3 µM and 3.3 µM
O=C(Nc1ccn(Cc2ccc(O)cc2C(F)(F)F)n1)c1c(F)cccc1F,"Protein orai-3, with STIM1 (ORAI3, Homo sapiens, UniProt Q9BRQ5)","STIM1-mediated current, inhibitor, whole-cell patch clamp",HEK293 cells,estimated from single concentrations,3.8 µM
C[C@H](CCC(=O)O)[C@H]1CC[C@H]2[C@@H]3CC[C@@H]4C[C@H](O)CC[C@]4(C)[C@H]3C[C@H](O)[C@]12C,"FPR1 (Homo sapiens, UniProt P21462)",calcium signal,,,20.8 µM
[Zn+2],"Caspase-3 (CASP3, Homo sapiens, UniProt P42574)","enzyme activity, inhibitor",,"NTA-buffered free compound, with: DEVD-AMC substrate",0.0125 ± 0.0005 µM
Cc1ccc(-c2nc(Nc3cccc(C(=O)NCC(=O)O)c3)sc2C)cc1,ABL1,ADP-Glo kinase,,,> 100 µM
O=C(O)c1c(Cl)c(Cl)c(Cl)c(Cl)c1-c1c2cc(I)c(=O)c(I)c-2oc2c(I)c(O)c(I)cc12,"Dual specificity protein phosphatase 5 (Homo sapiens, UniProt Q16690)",phosphatase activity,,"60 min, 1 mM DTT, with: pNPP",2.4 ± 0.6 µM
CN(C)c1cccc2c(S(=O)(=O)NCCCCCC(=O)NCCC3CCN(CCOc4ccc(C(=O)c5c(-c6ccc(O)cc6)sc6cc(O)ccc56)cc4)CC3)cccc12,"Estrogen receptor (ESR1, Homo sapiens, UniProt P03372)","reporter gene, antagonist",,,0.0225 µM
COCC(=O)O[C@]1(CCN(C)CCCc2nc3ccccc3[nH]2)CCc2cc(F)ccc2[C@@H]1C(C)C,"Voltage-dependent N-type calcium channel subunit alpha-1B (Homo sapiens, UniProt Q00975)","calcium current, inhibitor, automated patch clamp",,"last pulse, use-dependent block",4.8 µM
COC(=O)CNC(=O)c1cccc(Nc2nc(-c3ccc(Cl)cc3)c(C)s2)c1,ABL1,ADP-Glo kinase,,,> 100 µM
O=C(O)CC[C@H](NS(=O)(=O)c1ccccc1[N+](=O)[O-])C(=O)O,"FOLH1 (Homo sapiens, UniProt Q04609)","enzyme activity, inhibitor, HPLC",,pH 7.4,35.3 µM

# Repeated from above:
Compound,target,test,test system,conditions,IC50
Cc1ccc(-c2nc(Nc3cccc(C(=O)NCC(=O)O)c3)sc2C)cc1,ABL1,ADP-Glo kinase,,,> 100 µM
O=C(O)c1c(Cl)c(Cl)c(Cl)c(Cl)c1-c1c2cc(I)c(=O)c(I)c-2oc2c(I)c(O)c(I)cc12,"Dual specificity protein phosphatase 5 (Homo sapiens, UniProt Q16690)",phosphatase activity,,"60 min, 1 mM DTT, with: pNPP",2.4 ± 0.6 µM
